# Measured values collected from several papers.
# Each numbered part is a random draw from the data of one study; scales do not carry over between parts.
# Sequence of UniProt P11362 (whole entry, looked up): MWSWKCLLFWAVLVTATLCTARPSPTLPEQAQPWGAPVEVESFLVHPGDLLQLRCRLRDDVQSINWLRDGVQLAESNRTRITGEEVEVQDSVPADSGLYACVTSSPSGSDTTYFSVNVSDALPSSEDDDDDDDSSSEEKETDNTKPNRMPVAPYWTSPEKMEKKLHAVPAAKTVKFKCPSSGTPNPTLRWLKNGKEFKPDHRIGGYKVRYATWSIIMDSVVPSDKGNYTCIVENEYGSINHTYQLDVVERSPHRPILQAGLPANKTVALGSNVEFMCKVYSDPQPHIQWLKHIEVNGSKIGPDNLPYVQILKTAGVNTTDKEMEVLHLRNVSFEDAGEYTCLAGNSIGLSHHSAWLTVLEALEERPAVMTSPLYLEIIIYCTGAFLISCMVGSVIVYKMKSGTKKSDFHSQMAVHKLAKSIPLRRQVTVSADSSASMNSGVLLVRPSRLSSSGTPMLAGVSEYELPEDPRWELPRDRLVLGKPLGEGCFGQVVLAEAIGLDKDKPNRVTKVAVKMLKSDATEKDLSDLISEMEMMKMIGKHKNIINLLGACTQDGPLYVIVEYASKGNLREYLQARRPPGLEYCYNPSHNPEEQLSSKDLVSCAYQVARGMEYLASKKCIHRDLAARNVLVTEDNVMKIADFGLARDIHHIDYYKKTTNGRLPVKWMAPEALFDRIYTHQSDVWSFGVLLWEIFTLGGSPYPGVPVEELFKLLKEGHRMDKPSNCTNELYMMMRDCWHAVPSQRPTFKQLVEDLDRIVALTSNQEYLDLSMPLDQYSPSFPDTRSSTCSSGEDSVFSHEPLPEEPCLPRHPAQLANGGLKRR
# Sequence of UniProt Q04912 (whole entry, looked up): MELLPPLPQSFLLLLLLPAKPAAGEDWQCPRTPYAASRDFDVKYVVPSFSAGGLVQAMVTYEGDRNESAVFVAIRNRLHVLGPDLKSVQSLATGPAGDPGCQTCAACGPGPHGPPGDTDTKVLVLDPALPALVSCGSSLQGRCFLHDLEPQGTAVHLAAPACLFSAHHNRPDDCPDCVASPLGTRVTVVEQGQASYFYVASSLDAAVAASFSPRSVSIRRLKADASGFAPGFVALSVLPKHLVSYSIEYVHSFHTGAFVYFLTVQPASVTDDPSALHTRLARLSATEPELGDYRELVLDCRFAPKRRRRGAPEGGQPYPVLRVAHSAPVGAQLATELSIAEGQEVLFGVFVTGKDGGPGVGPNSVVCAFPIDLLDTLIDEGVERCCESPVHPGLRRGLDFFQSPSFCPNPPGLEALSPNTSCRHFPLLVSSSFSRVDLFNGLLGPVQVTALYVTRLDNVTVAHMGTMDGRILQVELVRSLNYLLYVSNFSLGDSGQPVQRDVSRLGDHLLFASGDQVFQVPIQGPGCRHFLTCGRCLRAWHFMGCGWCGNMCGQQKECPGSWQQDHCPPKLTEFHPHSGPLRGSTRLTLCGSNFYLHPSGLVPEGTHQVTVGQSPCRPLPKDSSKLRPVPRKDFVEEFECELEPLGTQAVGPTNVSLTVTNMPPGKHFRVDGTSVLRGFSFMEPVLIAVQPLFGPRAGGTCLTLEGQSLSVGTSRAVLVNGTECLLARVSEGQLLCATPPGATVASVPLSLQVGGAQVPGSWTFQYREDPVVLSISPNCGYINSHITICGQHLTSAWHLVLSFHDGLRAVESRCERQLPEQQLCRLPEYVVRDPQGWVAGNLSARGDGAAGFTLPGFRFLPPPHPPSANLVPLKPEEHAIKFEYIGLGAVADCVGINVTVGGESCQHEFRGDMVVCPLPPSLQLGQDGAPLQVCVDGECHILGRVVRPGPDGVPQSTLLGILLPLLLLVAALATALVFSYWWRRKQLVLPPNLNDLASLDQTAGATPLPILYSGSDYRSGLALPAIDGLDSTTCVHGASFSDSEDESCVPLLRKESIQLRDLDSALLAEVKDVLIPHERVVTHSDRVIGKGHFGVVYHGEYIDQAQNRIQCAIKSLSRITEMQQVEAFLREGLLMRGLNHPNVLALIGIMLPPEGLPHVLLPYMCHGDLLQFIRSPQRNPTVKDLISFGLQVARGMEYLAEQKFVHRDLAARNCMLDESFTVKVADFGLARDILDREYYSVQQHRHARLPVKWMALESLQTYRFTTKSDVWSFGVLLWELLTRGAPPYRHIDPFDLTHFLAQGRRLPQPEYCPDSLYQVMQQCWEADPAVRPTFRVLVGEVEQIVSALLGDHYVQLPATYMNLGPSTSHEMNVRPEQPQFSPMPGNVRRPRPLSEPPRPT
# Sequence of UniProt Q16659 (whole entry, looked up): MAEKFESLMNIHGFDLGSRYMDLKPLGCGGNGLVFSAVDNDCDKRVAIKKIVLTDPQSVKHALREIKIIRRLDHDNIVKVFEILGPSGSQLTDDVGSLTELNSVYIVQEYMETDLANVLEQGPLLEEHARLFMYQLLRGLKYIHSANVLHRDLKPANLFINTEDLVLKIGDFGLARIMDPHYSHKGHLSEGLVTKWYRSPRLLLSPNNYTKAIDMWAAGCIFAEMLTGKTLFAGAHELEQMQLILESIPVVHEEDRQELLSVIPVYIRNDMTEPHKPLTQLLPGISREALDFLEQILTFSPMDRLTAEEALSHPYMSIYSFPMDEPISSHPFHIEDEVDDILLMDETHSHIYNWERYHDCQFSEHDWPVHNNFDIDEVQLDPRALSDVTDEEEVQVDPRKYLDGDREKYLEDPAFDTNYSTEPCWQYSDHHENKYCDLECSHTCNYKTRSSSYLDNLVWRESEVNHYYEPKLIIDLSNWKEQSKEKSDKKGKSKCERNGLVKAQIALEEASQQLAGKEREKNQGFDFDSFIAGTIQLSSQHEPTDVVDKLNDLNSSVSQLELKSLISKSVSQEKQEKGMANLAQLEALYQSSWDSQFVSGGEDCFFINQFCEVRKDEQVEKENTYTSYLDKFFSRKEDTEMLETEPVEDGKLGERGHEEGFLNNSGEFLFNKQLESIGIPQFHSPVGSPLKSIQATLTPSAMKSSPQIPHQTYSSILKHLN
# Sequence of UniProt P30291 (whole entry, looked up): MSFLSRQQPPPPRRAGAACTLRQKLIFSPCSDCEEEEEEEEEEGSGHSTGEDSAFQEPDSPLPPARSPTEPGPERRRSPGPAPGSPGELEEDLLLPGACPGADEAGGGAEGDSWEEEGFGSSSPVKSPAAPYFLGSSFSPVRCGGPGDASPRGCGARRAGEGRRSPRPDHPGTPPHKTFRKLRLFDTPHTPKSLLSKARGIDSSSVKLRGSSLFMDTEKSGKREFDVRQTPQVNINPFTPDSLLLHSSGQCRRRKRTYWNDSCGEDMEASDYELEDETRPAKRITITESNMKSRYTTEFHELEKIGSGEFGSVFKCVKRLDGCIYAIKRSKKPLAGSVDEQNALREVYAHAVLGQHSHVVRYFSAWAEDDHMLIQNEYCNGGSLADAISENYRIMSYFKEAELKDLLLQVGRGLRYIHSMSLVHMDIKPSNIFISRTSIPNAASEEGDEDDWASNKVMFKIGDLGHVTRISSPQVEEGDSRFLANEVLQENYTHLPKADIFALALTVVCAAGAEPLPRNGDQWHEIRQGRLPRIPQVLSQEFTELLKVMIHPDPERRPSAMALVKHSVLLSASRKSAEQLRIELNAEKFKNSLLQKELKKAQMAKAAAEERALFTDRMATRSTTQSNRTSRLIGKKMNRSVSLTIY
# Sequence of UniProt P00519 (whole entry, unmodified, looked up): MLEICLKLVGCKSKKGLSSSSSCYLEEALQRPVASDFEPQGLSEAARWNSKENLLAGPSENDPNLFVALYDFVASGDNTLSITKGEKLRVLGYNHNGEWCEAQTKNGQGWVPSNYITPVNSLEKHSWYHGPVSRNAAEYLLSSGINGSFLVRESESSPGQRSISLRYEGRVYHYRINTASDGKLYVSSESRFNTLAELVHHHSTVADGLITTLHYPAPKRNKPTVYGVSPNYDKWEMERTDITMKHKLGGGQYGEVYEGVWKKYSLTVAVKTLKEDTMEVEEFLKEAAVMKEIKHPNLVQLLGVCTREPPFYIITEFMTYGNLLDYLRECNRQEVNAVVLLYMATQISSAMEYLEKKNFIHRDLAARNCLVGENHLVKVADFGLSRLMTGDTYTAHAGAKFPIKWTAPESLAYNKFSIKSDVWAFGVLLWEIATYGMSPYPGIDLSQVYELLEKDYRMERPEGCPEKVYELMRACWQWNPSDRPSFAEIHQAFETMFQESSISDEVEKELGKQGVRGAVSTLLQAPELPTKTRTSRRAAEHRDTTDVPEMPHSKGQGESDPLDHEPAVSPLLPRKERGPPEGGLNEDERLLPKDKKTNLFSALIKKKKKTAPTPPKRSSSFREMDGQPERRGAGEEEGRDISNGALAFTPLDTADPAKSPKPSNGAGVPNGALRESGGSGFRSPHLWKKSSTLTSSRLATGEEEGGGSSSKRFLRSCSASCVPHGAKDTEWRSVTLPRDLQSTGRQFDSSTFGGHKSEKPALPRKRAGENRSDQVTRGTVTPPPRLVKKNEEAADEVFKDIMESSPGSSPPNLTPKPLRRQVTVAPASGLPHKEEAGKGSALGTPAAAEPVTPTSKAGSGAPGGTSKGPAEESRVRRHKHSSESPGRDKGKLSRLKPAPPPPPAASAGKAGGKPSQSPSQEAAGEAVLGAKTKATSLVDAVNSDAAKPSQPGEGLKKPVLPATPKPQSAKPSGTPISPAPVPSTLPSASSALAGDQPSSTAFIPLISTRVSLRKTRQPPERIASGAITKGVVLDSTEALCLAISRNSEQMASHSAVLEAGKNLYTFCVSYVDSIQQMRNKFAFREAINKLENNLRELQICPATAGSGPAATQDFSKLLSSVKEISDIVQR
# Sequence of UniProt P50750 (whole entry, looked up): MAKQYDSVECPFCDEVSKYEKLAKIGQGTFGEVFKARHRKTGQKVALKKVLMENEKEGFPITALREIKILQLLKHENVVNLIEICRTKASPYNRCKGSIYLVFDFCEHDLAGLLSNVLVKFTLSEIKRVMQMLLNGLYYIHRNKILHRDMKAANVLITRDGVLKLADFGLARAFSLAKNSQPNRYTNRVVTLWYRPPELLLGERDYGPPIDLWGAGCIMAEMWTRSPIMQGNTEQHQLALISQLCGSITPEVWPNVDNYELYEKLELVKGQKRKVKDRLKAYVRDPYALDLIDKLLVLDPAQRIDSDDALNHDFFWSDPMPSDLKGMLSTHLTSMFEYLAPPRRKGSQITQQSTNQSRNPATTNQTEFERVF

# Set 1 — concentration: 1 µM
# SMILES: COc1cccc(CNC(=O)c2nc3scc(COCc4ccc(C(=O)O)cc4)c3c(=O)[nH]2)c1
target,effect on,technique,remaining binding [%]
"CDK5 (Homo sapiens, UniProt Q00535)",cell-free assay,competition with immobilised ligand,95.7
"MAPK6 (Homo sapiens, UniProt Q16659)",cell-free assay,competition with immobilised ligand,99.9
"Tyrosine-protein kinase ABL1, phosphorylated (ABL1, Homo sapiens, UniProt P00519, F317I)",binding,,62.4
"PIK3CA (Homo sapiens, UniProt P42336, H1047L)",cell-free assay,competition with immobilised ligand,100
"CDK9 (Homo sapiens, UniProt P50750)",cell-free assay,competition with immobilised ligand,78.6
"CDC42BPA (Homo sapiens, UniProt Q5VT25)",cell-free assay,competition with immobilised ligand,100

# Set 2 — target: UBE2D1 UBC core domain (UniProt P51668); technique: yeast two-hybrid; medium: yeast; setting: mostly zero background; relative to: not given; direction: higher = stronger interaction
# B1: TRAF5 RING domain (UniProt O00463); chain FVERLEERYKCAFCHSVLHNPHQTGCGHRFCQHCILSLRELNTVPICPVDKEVIKSQEVFK
# B2: NEURL1 RING domain (UniProt O76050); chain VTPGLGQWSDECTICYEHAVDTVIYTCGHMCLCYACGLRLKKALHACCPICRRPIKDIIKT
# B3: DTX4 RING domain (UniProt Q9Y2E6); chain QKVRHPPDEDCTICMERLTAPSGYKGPQPTVKPDLVGKLSRCGHVYHIYCLVAMYNNGNKDGSLQCPTCKTIYGVKTGTQ
# B4: RNF111 RING domain (UniProt Q6ZNA4); chain EGTEEDTEEKCTICLSILEEGEDVRRLPCMHLFHQVCVDQWLITNKKCPICRVDIEAQLPSE
# B5: RC3H1 RING domain (UniProt Q5TC82); chain QAPQWTDFLSCPICTQTFDETIRKPISLGCGHTVCKMCLNKLHRKACPFDQTTINTDIELL
# Residues (chain): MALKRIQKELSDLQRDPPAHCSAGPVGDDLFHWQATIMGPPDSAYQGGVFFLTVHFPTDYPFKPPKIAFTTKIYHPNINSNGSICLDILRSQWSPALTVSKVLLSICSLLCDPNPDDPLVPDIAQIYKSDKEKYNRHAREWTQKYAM
Sequence,lacZ reporter activity
PAELEVQASECVVCLEREAQMIFLNCGHVCCCQQCCQPLRTCPLCRQDIAQRLRIY (LRSAM1 RING domain (UniProt Q6UWE0)),0
B1 (TRAF5 RING domain),0
B2 (NEURL1 RING domain),0
VEPSEENSKDCVVCQNGTVNWVLLPCRHTCLCDGCVKYFQQCPMCRQFVQESFALC (CGRRF1 RING domain (UniProt Q99675)),0
B3 (DTX4 RING domain),0
B4 (RNF111 RING domain),14200
FQGDVDEDLICPICSGVLEEPVQAPHCEHAFCNACITQWFSQQQTCPVDRSVVTVAHLRP (RNF41 RING domain (UniProt Q9H4P4)),0
B5 (RC3H1 RING domain),0

# Set 3 — effect on: enzyme activity; mode: inhibitor; concentration: 0.5 µM; relative to: control
# Structure (SMILES): c1cc(-c2cnn3cc(-c4ccc(OCCN5CCCCC5)cc4)cnc23)ccn1
target,remaining activity
"MAP3K5 (Homo sapiens, UniProt Q99683)",98.4%
"FRK (Homo sapiens, UniProt P42685)",66.5%
"TEK (Homo sapiens, UniProt Q02763)",99.3%
"CSNK1G2 (Homo sapiens, UniProt P78368)",74.4%
"WEE1 (Homo sapiens, UniProt P30291)",75.4%
"MAPKAPK2 (Homo sapiens, UniProt P49137)",86.6%
"RPS6KA2 (Homo sapiens, UniProt Q15349)",81%
"MAP2K2 (Homo sapiens, UniProt P36507)",81.9%
"TAOK2 (Homo sapiens, UniProt Q9UL54)",90.3%
"MERTK (Homo sapiens, UniProt Q12866)",82.2%
"FGFR1 (Homo sapiens, UniProt P11362)",59.9%
"JAK3 (Homo sapiens, UniProt P52333)",97.7%
"MST1R (Homo sapiens, UniProt Q04912)",102%

# Set 4 — technique: RNAcompete; form: RNA; medium: in vitro; concentration: 20 nM; setting: 7-mer, probes averaged, single round; relative to: mean of 7-mers; direction: higher = stronger binding
# Target: PABPC1L2, full length, GST fusion (mouse, UniProt A0ABA7IW68)
# Construct (chain): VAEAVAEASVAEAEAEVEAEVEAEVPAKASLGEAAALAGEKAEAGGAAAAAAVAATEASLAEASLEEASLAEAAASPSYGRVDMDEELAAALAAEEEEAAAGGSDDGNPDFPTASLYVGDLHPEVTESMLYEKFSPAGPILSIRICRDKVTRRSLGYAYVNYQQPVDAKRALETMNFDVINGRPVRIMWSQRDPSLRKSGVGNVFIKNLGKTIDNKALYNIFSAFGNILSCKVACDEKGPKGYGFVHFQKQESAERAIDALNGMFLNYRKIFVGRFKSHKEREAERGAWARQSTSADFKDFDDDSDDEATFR
Sequence,7-mer Z-score
UAGCCCU,-0.246
UCGAAUC,-0.173
AUUCCCA,-0.311
GACGACG,-0.00652
GGCCACA,-0.153
UAAAUUC,0.7
GAAAUGC,0.276
GGCAACG,0.287

# Repeated from above (set 3):
target,remaining activity
"RPS6KA2 (Homo sapiens, UniProt Q15349)",81%
"MAPKAPK2 (Homo sapiens, UniProt P49137)",86.6%
"TEK (Homo sapiens, UniProt Q02763)",99.3%
"WEE1 (Homo sapiens, UniProt P30291)",75.4%
